Results from different studies.
Every numbered part comes from another study and shows a few of its results, in no order. Changes are numbered by the printed parent chain.

Series 1
Target: RING finger protein unkempt homolog, zinc fingers 1-6, GST-SBP tag (UNK, Homo sapiens, UniProt Q9C0B0, residues 30-357)
Sequence of UniProt Q9C0B0 (30-357, looked up): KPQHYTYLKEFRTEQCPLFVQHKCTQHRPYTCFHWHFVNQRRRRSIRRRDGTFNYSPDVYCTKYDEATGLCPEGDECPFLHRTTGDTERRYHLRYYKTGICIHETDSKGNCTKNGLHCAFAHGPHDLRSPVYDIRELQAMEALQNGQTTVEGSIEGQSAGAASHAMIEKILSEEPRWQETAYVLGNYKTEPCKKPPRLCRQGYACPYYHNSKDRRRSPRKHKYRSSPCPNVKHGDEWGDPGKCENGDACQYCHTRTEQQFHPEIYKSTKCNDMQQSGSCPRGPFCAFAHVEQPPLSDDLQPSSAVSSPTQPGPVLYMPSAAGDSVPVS
Method: RNA Bind-n-Seq
Molecule type: RNA
Matrix: in vitro
Tested at: not given
Setting: RNA with constant flanks, human-mouse chimeric sites, ends assumed
Reference: input RNA pool
Reading: higher = stronger binding
Measurement: bound/input enrichment
Constant ends, left off below: GGGAGUUCUACAGUCCGACGAUC … CAACAGAGGAUUGAGCAUCA
CUGGCACUCUAUCAGAUAUAUUAAUUUUUAAAUGUAGAUGUAAUUUUAAAAAUGAAUGGCUACUUUACGUGAUAGAUUAGGGUUUUACUAUAUAUGUGUACAUAUGUAUAUAUAUAUAUA: 6.38 ratio
UCAGGAACCCAGACAAACAUGAAUGUAAAUGAAGUCAUUAGCAACAGAGCAAUUGAAAUGUUAGGAGGUGAACUUGGCAGCAAGAUACCUGUGCACCCCAAUGAUCAUGUUAACAAAAGC: 0.325 ratio
CACGUGUCUGCAGUGCUUGAUGUGGAUUACUCUCCCACUGGGAAGGAAUUUGUGUCUGCCAGCUUUGAUAAGUCUAUUAGAAUCUUUCCUGUGGACAAGAGCCGAAGCAGGGAAGUGUAU: 0.242 ratio
AAAGAACUACUGAGGCAAGGCAGCAAAUUUAGGAGAGACAUUUCAACAAUAUUGAUAGAGUUAGGAUUCCAAAUUAAAAAAAAAACUAAGACAUUAUACAUCAACAAAGCCAAUGUGUGG: 16.2 ratio
CUGUGACCACAAGAUCCUACCUGAGUGGCAGCUGAAGUUGACUCCCUCUCCUUGCCUGAACCCCCCCCCACUGCCCCUUGAGUCCACAGUGUCGGCUGAGAUGUUGCCAGCAGACAGUUC: 0.669 ratio

Series 2
Target: Fragile X messenger ribonucleoprotein 1, C-terminal low-complexity region (Fmr1, Mus musculus, UniProt P35922)
Method: RNA Bind-n-Seq
Molecule type: RNA
Matrix: in vitro
Tested at: 200 nM
Setting: whole 134-nt RNA, ends assumed
Together with: 150 mM LiCl
Reference: input library
Reading: higher = stronger binding
Measurement: log2 enrichment
Library: 7-deaza-guanosine replaces G
GGGAGUUCUACAGUCCGACGAUCCCUCAAGUCCUGUGCUACACAUCGUAUGUACCGAAUCGGAGGAAAAAGGAGGAAAGUAUUAUGUUACGCCGUUCGGAUCUGCACUUCCAGUGGAAUUCUCGGGUGUCAAGG: -0.453
GGGAGUUCUACAGUCCGACGAUCCUCAAGUCCUGUGCUACACAUCGUAUGUACCGAAUCGGGGAGGGAGGGGAGGGAAAGUAUUAUGUUACGCCGUUCGGAUCUGCACUUCCAUGGAAUUCUCGGGUGUCAAGG: -0.737
GGGAGUUCUACAGUCCGACGAUCCACAGACAACACGCACCCACACAGACACAGAGGGAAGGGGUUGGGAUGGGGACAGGAAACACAGCAGGGCGGGGUAGGACCCCAGCCCCUUGGAAUUCUCGGGUGUCAAGG: -0.114
GGGAGUUCUACAGUCCGACGAUCAAGUCCUGUGCUACACAUCGUAUGUACCGAAUCGGGAAAAGGAAAAGGGGAAAAGGAAAGUAUUAUGUUACGCCGUUCGGAUCUGCACUUUGGAAUUCUCGGGUGUCAAGG: -0.842

Series 3
Target: CCNA2, cyclin fold, Cln2 fusion (human)
Method: yeast growth competition, sequencing
Matrix: yeast
Setting: strong parent motif
Reference: not given
Reading: higher = stronger binding
Measurement: normalised enrichment score
Starting sequence: CDKN1B docking peptide (human); PSACRNLFGPVDH
PSACRNLFHPVDH [G9H]: 1.86
PSACRMLFGPVDH [N6M]: 3.34
PSACRNLFKPVDH [G9K]: 2.45
GSACRNLFGPVDH [P1G]: 3.56

Further values, each from its own experiment
PhoQ, residues 284 288 289 292 302 303 SLANIV  fold induction (PhoP, residues 12 14 15 18 19 NMSFL (Escherichia coli, UniProt P23836); Sort-seq, measured: YFP reporter; E. coli; PhoQ-PhoP variant library, together with: 10 µM Mg2+; reference: high Mg2+ state, higher = stronger signaling): 14.8

Some of these lines once more (series 2):
GGGAGUUCUACAGUCCGACGAUCCUCAAGUCCUGUGCUACACAUCGUAUGUACCGAAUCGGGGAGGGAGGGGAGGGAAAGUAUUAUGUUACGCCGUUCGGAUCUGCACUUCCAUGGAAUUCUCGGGUGUCAAGG: -0.737
